Measured values of several laboratories.
Compare with care: the assays were run in different laboratories. ± gives the spread as reported. Ends that are not written are not given here.
B1: PknH; chain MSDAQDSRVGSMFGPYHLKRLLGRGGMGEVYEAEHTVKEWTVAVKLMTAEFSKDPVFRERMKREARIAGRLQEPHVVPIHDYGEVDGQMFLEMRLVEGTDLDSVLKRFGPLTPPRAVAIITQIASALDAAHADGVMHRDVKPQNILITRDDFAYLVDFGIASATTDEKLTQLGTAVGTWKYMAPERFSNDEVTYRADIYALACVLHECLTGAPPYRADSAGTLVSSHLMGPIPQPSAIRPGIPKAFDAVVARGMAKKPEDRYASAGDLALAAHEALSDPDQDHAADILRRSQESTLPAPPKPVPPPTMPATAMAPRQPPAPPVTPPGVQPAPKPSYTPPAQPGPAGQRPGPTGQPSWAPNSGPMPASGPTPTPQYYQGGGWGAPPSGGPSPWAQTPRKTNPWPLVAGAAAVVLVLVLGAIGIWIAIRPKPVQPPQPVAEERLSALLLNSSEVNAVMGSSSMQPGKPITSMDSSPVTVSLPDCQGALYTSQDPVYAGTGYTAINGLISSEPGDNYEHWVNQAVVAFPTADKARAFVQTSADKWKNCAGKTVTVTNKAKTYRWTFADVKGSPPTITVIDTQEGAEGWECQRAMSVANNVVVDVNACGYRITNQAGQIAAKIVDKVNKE

Molecule | target or system | assay | system | conditions | how to read | quantity | value
clpS (Mycolicibacterium smegmatis) | clpC1 (Mycobacterium tuberculosis, UniProt P9WPC9) | MST | – | apparent | – | Kd | 100 ± 160 µM
ALLAVFQSASKIITL | human CD4 T cells | AIM | peptide | – | – | responding donors | 9%
DDX1 (Homo sapiens, UniProt Q92499) | Rev 1-116 C to S both cysteines, Alexa Fluor 555 label (HIV-1) | single-molecule TIRF | – | 150 nM, together with: AMP-PNP 1 mM | – | average Rev oligomer size | 3.81 Rev monomers
B1 (PknH) | Transcriptional regulatory protein EmbR (embR, Mycobacterium tuberculosis, UniProt P9WGJ9) | – | – | – | – | Kd | 0.069 ± 0.096 µM
Spike receptor binding domain (SARS-CoV-2) | ACE2 recombinant ectodomain 18-740 (Homo sapiens, UniProt Q9BYF1) | SPR | – | – | – | koff | 0.038 s⁻¹
ACE2/pIgR VHH6 Fc fusion ACE2 , Fc fusion (Homo sapiens) | spike RBD RBD (SARS-CoV-2, UniProt P0DTC2) | BLI | – | – | – | Kd | 0.101 µM
pertussis toxin | ADRB2 (Homo sapiens, UniProt P07550) | HTRF, item: pERK/total ERK | HEK293 expressing ADRB2 | concentration not given, overnight | – | constitutive ERK1/2 phosphorylation | decreased
LMP1 D150A (Epstein-Barr virus) | itself | luciferase reporter | HEp2 | – | reference: LMP-1 expressing cells, higher = more activity | NFκB reporter activity | 15%
GCCSNPVCHLEHSNLC (α-conotoxin MII; not fully specified (C-terminus, bridges); cysteine pairing not given here; sequence looked up) | Chrna3/Chrnb2 (Mus musculus, UniProt Q8R4G9+Q9ERK7) | ion current | peptide, mouse | dose not given | – | current inhibition | 95%
QPLRKLCILHRNPGRCYQKIPAFYYNQKKKQCEGFTWSGCGGNSNRFKTIEECRRTCIRK (dendrotoxin I; ends and bridges not checked; cysteine pairing not given here; sequence looked up) | Kcnma1 (Rattus norvegicus, UniProt Q62976) | blocker, planar bilayer single channel | – | together with: BP | reference: singly occupied channel | ΔΔG‡ association | -0.2 kcal/mol
BKRF4 fragment D81A/W84A/P86A/Y94A (Epstein-Barr virus) | H2A/H2B dimer (Homo sapiens) | magnetic tweezers | – | – | – | unwrapping force of outer wrap | 8 pN
L1/L2 (human papillomavirus 16) | ANXA2/S100A10 heterotetramer (Homo sapiens) | flow cytometry | LC | 48 hr, together with: HPV16 pseudovirions | higher = more MHC II | cell surface MHC II | 624 MFI
Nef homodimer, full length (HIV-1, UniProt P03407) | BTK SH3-SH2 dimer (Mus musculus) | SPR | – | – | – | Kd | 1.75 µM
FGDQELIRQGTDYKH | human CD4 T cells | AIM | peptide | – | – | responding donors | 8%

For quick reference, copied from above:
Molecule | target or system | assay | system | conditions | how to read | quantity | value
clpS (Mycolicibacterium smegmatis) | clpC1 (Mycobacterium tuberculosis, UniProt P9WPC9) | MST | – | apparent | – | Kd | 100 ± 160 µM
ALLAVFQSASKIITL | human CD4 T cells | AIM | peptide | – | – | responding donors | 9%
